Published values of several laboratories.
Parts stem from different laboratories: compare values within a part only.

Block 1 — technique: aptamer microarray, sandwich; form: DNA with 2'F-ANA; medium: in vitro; tested at: 200 nM; added: Cy3 exosite-II aptamer, 400 nM; direction: higher = stronger binding; endpoint: mean fluorescence intensity; sequence: GGTTGGTGTGGTTGG
Target: Prothrombin, mature alpha-thrombin (F2, Homo sapiens, UniProt P00734)
Notes: whole 15-mer aptamer, many near background
2'F-ANA at 1 3 4 5 7 11 12 13 14 15: 48 a.u.
2'F-ANA at 2 3 4 10 11 12 13 14 15: 166 a.u.
2'F-ANA at 2 3 5 7 8 9 11 14: 51.9 a.u.
2'F-ANA at 2 6 8 11 13: 312 a.u.
2'F-ANA at 1 2 3 4 10 12 13: 67.9 a.u.
2'F-ANA at 2 4 10 12 15: 137 a.u.
2'F-ANA at 1 4 6 7 8 14 15: 56.5 a.u.
2'F-ANA at 2 5 6 7 8 11 12 14: 48.3 a.u.
2'F-ANA at 2 4 6 9 11 14: 77.3 a.u.
2'F-ANA at 2 4 6 7 9 10 12 13 14 15: 65.9 a.u.
2'F-ANA at 1 2 3 8 9 12 13 14 15: 101 a.u.
2'F-ANA at 5 6 8 9 10 11 13 15: 44.9 a.u.
2'F-ANA at 2 5 10 14 15: 43.5 a.u.
2'F-ANA at 1 6 9 11 12 13: 225 a.u.
2'F-ANA at 1 2 3 4 6 8 9 12 13: 247 a.u.
2'F-ANA at 1 3 4 7 8 11 12 13: 309 a.u.
2'F-ANA at 9 11 13 14 15: 145 a.u.
2'F-ANA at 1 3 5 10 11 12: 47.7 a.u.
2'F-ANA at 2 3 4 6 9 11 14 15: 213 a.u.
2'F-ANA at 1 2 4 5 7 8 11 13 14: 123 a.u.
2'F-ANA at 1 2 3 4 5 9 11 14 15: 44.4 a.u.
2'F-ANA at 1 2 3 4 5 6 10 11 12 13 14 15: 47.7 a.u.

Block 2 — technique: protein-binding microarray; form: double-stranded DNA, one strand shown; medium: in vitro; tested at: 2540 nM top; notes: 60-bp whole probe; added: salmon DNA 0.4 mg/ml; reference: random background probes; direction: higher = stronger binding; endpoint: fitted relative affinity; shared flanks, not repeated: GCCTAGCAC … GTCTTGATTCGCTTGACGCTGCTG
Target: Interferon regulatory factor 3, full length, phosphomimetic (IRF3, Homo sapiens, UniProt Q14653, residues 1-427, S386D/S396D/S398D/S402D/T404D/S405D)
Target sequence (chain): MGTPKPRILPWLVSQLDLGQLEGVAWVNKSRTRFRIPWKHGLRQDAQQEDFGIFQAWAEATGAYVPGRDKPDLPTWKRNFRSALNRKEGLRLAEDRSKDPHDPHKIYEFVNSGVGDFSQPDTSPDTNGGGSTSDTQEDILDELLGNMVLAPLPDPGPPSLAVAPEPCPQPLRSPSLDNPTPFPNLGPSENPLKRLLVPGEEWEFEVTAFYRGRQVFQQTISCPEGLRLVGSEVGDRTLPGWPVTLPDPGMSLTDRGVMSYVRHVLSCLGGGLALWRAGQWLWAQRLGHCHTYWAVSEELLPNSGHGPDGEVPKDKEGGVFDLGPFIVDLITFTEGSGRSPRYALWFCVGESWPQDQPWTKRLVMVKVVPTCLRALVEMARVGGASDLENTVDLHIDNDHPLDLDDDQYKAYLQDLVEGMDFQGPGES
TTAGGTTTCCTTATCCTGTAGTGCTAG: 8.17 z-score
GACGATATCAGTAGCGAGACGTGCTAG: -0.0849 z-score
TTAGAACTGAGTCTAGATTAGTGCTAG: -0.46 z-score
GACCGTATCGGTATCGGGACGTGCTAG: 4.86 z-score
AGGGTCTTCAGGTTCTCCCCGTGCTAG: -0.843 z-score
ATATATTTATGTATACACACGTGCTAG: 0.734 z-score
GACGGTTTCGACTTTCGGGTCGTGCTA: 4.46 z-score
TTAGGTTTCGGTTCCGGTCAGTGCTAG: 10.9 z-score
CTAGGTTTCGGTTCCGGTTAGTGCTAG: 10.3 z-score
TGAGTTTTCCTTCATGTGCCGTGCTAG: 2.4 z-score
GACGGACTGGGTCTCGAGACGTGCTAG: -0.695 z-score
GACGGTACCGGTCTCGGGACGTGCTAG: 1.78 z-score
TCAACTATTGCTTCCTCACTGTGCTAG: 0.231 z-score
TTAGATCTCTGTTTCGATTAGTGCTAG: 2.87 z-score
GACGGTATCGACTTTCGGGGCGTGCTA: 1.13 z-score
TTAGGTTTCGGGACTGGGTTAGTGCTA: 4.25 z-score
GACGATTTCGCGACTGGAGACGTGCTA: 0.559 z-score
TTCTTTTTTTTCTTTAAAAGGTGCTAG: 2.7 z-score
TTAGCTCTCAGTTTCGATTAGTGCTAG: 3.2 z-score
TCAATTTTCAATTCCTGACTGTGCTAG: 1.69 z-score
GACGATTCCCGTTTCGAGACGTGCTAG: 2.68 z-score

Block 3 — technique: competition protein-binding microarray; form: double-stranded DNA, one strand shown; medium: in vitro; tested at: 2 µM; added: Pho4 competitor, 0.05 µM; direction: higher = stronger binding; endpoint: fluorescence intensity
Target: Centromere-binding protein 1, full length, His-tagged (CBF1, Saccharomyces cerevisiae, UniProt P17106, residues 1-351)
Chain of UniProt P17106 (whole entry, looked up): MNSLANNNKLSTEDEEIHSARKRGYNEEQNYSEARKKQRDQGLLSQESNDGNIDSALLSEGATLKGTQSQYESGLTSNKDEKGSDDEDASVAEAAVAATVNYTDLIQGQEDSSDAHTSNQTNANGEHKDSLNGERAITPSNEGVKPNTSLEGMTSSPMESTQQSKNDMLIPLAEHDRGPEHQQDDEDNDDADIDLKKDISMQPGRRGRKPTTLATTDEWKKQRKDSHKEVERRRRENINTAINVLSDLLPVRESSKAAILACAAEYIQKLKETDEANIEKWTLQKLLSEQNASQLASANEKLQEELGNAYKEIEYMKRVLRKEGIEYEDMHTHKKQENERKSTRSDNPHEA
Notes: whole 60-bp probe, lowest competitor level
TGCAGTCTAAAAACACACGTGTAGGTTTTTTTCCGCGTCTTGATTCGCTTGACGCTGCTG: 1160 a.u.
GTACTGAGGTTAACACACGTTGTTGCGTACTCATCAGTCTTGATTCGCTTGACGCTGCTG: 97.1 a.u.
GCAAAGGAGGGAAAGCACGGGCAGATAGCACCGTACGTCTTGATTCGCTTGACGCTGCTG: 64.4 a.u.
CGGCCGCTGGCAGAGCACATGCGCCGTACGTCCATAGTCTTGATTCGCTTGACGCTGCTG: 80.9 a.u.
CATACCCAACCTTGTAGTGTGGGTGAAGATATTTGTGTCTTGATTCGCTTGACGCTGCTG: 73.3 a.u.
GTTTCGTAAGTAGTGCGCGTGCAAATTTCGCCCGTTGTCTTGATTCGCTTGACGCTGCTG: 107 a.u.
GTCTTGTCTCATTGCATTGTGGGTGTCCCCACTTCAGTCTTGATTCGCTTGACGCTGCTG: 93.9 a.u.
CCTGGCCAAGGGCTTCACGTGTAATCTCATTTAATTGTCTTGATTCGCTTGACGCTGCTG: 752 a.u.
AAAGCGGTAATTTGTGACGTGGGTGCAGATATCTATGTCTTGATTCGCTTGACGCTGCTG: 82 a.u.
CTGTATGTGTGGCGTCACAAATTAGGGGACTCTGGCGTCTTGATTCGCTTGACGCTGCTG: 83.3 a.u.
CTTCTGTAAATTTTTCACGTGAACTGACGCGCCCCGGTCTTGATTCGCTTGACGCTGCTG: 825 a.u.
CGGGGTTAAGTTTGTCACAGTACTTGCTTGCAGCAGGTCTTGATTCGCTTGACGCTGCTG: 81.1 a.u.
CCACCGGGGGCAAGTCTCATGACAATTGGCGCAAATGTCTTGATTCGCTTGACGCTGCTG: 101 a.u.
GTTTAGGATATCGGTATCGTGGGTAAAACTCAACCAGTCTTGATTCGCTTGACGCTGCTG: 74.4 a.u.
CCATTACCCGCAAAGCACGTGAGGAAAAAATCAATTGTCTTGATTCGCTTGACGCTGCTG: 2470 a.u.
TGCGCAACAACTTGCGGTGTGGGTGTATGTCTAGAAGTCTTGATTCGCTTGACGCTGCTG: 67.5 a.u.
AAATTACTAAGTTGTATTGTGGGTGACGCCGTATGAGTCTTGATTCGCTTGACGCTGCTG: 79.2 a.u.
AAAGCGGTAATTTGAATTGTGGGTGCAGATATCTATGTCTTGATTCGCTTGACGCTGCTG: 79 a.u.
CATCAGCATGGTACCCTCGTGTTTTCTGCAGCGAGAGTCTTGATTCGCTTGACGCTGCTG: 107 a.u.
CATACCCAACCTTGGTGAGTGGGTGAAGATATTTGTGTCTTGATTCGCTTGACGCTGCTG: 65.8 a.u.
GCTAATGCCCATTTGCACGTTCTAATAATGAAGGTCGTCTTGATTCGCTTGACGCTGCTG: 230 a.u.
AAAAATATGCATTTTCTCATGACAAATTCATTCGGAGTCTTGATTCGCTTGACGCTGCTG: 103 a.u.
GCAGACTTGATCGTCTTCGTGATGGTAGCTTTCTGTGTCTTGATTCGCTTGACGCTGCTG: 67.6 a.u.
TTGGCCTAGCCGGTTCGCGTGTGTTTGTCGCTTTTGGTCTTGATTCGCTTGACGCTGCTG: 74 a.u.
AAGGTATTGATAACCTGCGTGACGGTCTGGTGGAATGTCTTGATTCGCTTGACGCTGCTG: 79.4 a.u.

Block 4 — technique: protein binding microarray; form: double-stranded DNA, one strand shown; medium: in vitro; tested at: not given; reference: not given; direction: higher = stronger binding; endpoint: E-score
Target: Histone acetyltransferase KAT6A, winged helix 1, GST fusion (KAT6A, Homo sapiens, UniProt Q92794, residues 1-85)
Notes: 8-mer, flanks averaged, mean of 2 arrays, mostly near background
Construct (chain): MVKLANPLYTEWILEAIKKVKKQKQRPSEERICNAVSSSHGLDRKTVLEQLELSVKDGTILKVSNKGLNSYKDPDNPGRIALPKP
CTGGCTTC: -0.0168
ACAGCGCC: 0.325
GACTACGC: 0.221
AACCTTTA: -0.202
ACGACGAC: -0.149
AGTAGACA: -0.0515
CTACGTTC: -0.0366
ATAGAGCA: -0.193
ATACTCAC: -0.158
AATGTGCA: -0.147
CGGCGGCC: 0.471
CCTGGGCA: -0.214
CCCAGATA: -0.232
GGGGTCAA: 0.0789
CAACAACG: -0.13
CTTTAGGA: -0.179
CTGTGGCC: 0.0282
AGTCCAAG: -0.0873
ATTTTAAA: -0.0945
CATTATGG: 0.0181
CATGAAGA: -0.179
TAAGCATA: -0.149
GGATGGAC: -0.12
CGAACAAA: -0.0374
ACCGAGCT: -0.00781
